Experimental data of several laboratories.
Compare with care: the assays were run in different laboratories. Numbers after ± are the reported error.

Substance | target | assay | test system | conditions | how to read | measurement | value
CC(C)(C)c1cc(C(C)(C)C)c(NC(=O)c2c[nH]c3ccccc3c2=O)cc1O | CFTR S549R human | short-circuit current, potentiator | CFBE | 14.44 µM, added: forskolin 20 µM | relative to: PKA-activated wild type | CFTR activity | 35.6 ± 4.2%
CC1=C[C@H](O/C=C2/C(=O)O[C@@H]3c4ccccc4C[C@H]23)OC1=O | SMXL7-YFP (Arabidopsis thaliana) | confocal microscopy, refers to: nuclear SMXL7-YFP | Nicotiana benthamiana epidermal cells | 10 µM, 120 min, SMXL7-YFP with empty vector | relative to: mock | reduction of SMXL7-YFP level | 23%
Tumor necrosis factor alpha | potassium channels (human) | whole-cell patch clamp | A549 | concentration not given, holding potential -100 mV, added: amiloride 10 to 100 µM, TEA 10 mM |  | TEA-sensitive potassium current share | 6.9 ± 1.8%
KTGPLGGTRRGRGPRGRKLPSKVASVEKIEEDDNTNKIEIFNNWNVSS | actin, rabbit skeletal muscle | pyrene actin polymerization | peptide | concentration not given, peptide without capping protein, added: 1 µM actin, 20% pyrene | relative to: actin alone | relative polymerization rate | 0.98
Nc1nc2ccc(SC(F)(F)F)cc2s1 | MeAIB/glutamine transporter, rat | MeAIB uptake | hippocampal neurons, rat | 20 µM, added: [14C]MeAIB 23.4 µM |  | inhibition | > 90%
COc1ccc2c(c1)CC[C@@H]1[C@@H]2CC[C@]2(C)[C@@H](NCCCCCCN3C(=O)C=CC3=O)CC[C@@H]12 | human PLCβ |  | HEK-293T expressing B2 receptor | 2 µM, 1 h, added: bradykinin 250 nM |  | PLCδ-PH-GFP translocation | 0.116
VDPRL | HPC4 antibody (mouse) | binding, yeast display flow cytometry | peptide | concentration not given, added: 100 nM HPC4 |  | cells bound | 71.2%
Ac-DNCQYVYNV-NH2 (N-acetyl, C-amide) | mouse neutrophil elastase | inhibitor | peptide, wild type neutrophil lysate | 2.5 mM, 30 min preincubation, pH 8.0, 37 °C, added: MeOSuc-AAPV-pNA 1 mM |  | inhibition | 89%
O=C1Nc2ccc(Cl)cc2[C@@](C#CC2CC2)(C(F)(F)F)O1 | GABAA receptor α4β2γ2 | current potentiation, positive allosteric modulator, whole-cell patch clamp |  | added: GABA EC30 |  | EC50 | 5900 ± 1300 nM
O=CN/C=C/c1cc(O)ccc1O | native rod CNG channel | ion current, inhibitor, patch clamp | Ambystoma tigrinum, rod outer segment patch, inside-out | 100 µM, closed channels, 1 min pre-exposure, added: genistein 100 µM |  | genistein inhibition | decreased
O=c1c2nc(Br)n([C@@H]3O[C@@H]4COP(=O)(O)O[C@H]4[C@H]3O)c2nc2[nH]c(-c3ccccc3)cn12 | cGMP antibody | non-acetylated cGMP EIA |  |  |  | EC50 | 136 nM
DPRLI | HPC4 antibody (mouse) | binding, yeast display flow cytometry | peptide | concentration not given, added: 100 nM HPC4 |  | cells bound | 96.2%
Ac-DNCPYVPNA-NH2 (N-acetyl, C-amide) | mouse cathepsin G | enzyme activity | neutrophil lysate | 1.25 or 2.5 mM, pH 8.0, 37 °C |  | cathepsin G activity | no effect
C[C@@H]1C[C@H]2[C@@H]3CCC4=CC(=O)C=C[C@]4(C)[C@@]3(F)[C@@H](O)C[C@]2(C)[C@@]1(O)C(=O)CO | caspase-3 mouse | activity-based probe | mouse, thymus | intravenous, 50 nmol, probe 2 h before sacrifice, added: dexamethasone 50 mg/kg intraperitoneal |  | onset time of caspase-3 activity | 6 h
DPRL | HPC4 antibody (mouse) | binding, yeast display flow cytometry | peptide | concentration not given, added: 100 nM HPC4 |  | cells bound | < 1%
O=c1c(-c2ccc(O)cc2)coc2cc(O)cc(O)c12 | native rod CNG channel | ion current, patch clamp | Ambystoma tigrinum, rod outer segment patch, inside-out | 100 µM, 1 min, residual current after pre-exposure, closed channels, added: cGMP 2 mM |  | activation time constant | 20 ms
Nc1nc2c(nc(Br)n2[C@@H]2O[C@@H]3COP(=O)(O)O[C@H]3[C@H]2O)c(=O)[nH]1 | cGMP antibody | non-acetylated cGMP EIA |  |  |  | EC50 | 1.83 nM
CC(C(O)c1ccc(O)cc1)N1CCC(Cc2ccccc2)CC1 (stereo not shown) | NMDA receptor | NMDA-evoked current, inhibitor, patch clamp | cultured hippocampal neurons | 3 µM, added: 100 µM NMDA and 3 µM glycine | relative to: untreated | remaining activity | 30 ± 10%
Cc1cc(C2CCCCC2)n(O)c(=O)c1 | HIF ODD | luciferase reporter, activator | SH-SY5Y | 0.05 to 15 µM | relative to: background | maximum activation | 8.5 ± 0.5 fold
human clusterin | amyloid beta 1-40 oligomers from aggregation |  |  | 10 to 20 nM, 21 °C |  | persistence of Aβ complexes | > 50 h
dynamin-1 | dynein-1 (TMR-labelled) | microtubule motility, single-molecule TIRF |  | pH 7.2, added: ATP 1 mM |  | run length | 1.24 µm
Ac-DNCPFHYNP-NH2 (N-acetyl, C-amide) | mouse cathepsin G | inhibitor | peptide, wild type neutrophil lysate | 2.5 mM, 30 min preincubation, pH 8.0, 37 °C, added: N-Suc-AAPF-pNA 1 mM |  | inhibition | 20%
Cc1ccc2c(=O)c3cccc(CC(=O)O)c3oc2c1C | TBK1 | phosphorylation, inhibitor | THP-1 | up to 1 mM, 4 h, added: c-di-GMP |  | activity | inactive
CS(=O)(=O)NCC1CCCN(c2ncnc3ccc(C(F)(F)F)cc23)C1 (stereo not shown) | human TXNIP promoter | reporter gene, dual luciferase | INS-1 transfected | 1 µM, 24 h |  | inhibition | ~70%
KRRQTSMTDFYHSKRRLIFSGGSGGSGGSGGSGGSGGSKRRQTSMTDFYHSKRRLIFS (divalent) | PCNA trimer, human | complex formation, gel filtration |  | concentration not given, pH 7.2 |  | molecular weight | ~149 kDa

Repeated from above:
Substance | target | assay | test system | conditions | how to read | measurement | value
Cc1cc(C2CCCCC2)n(O)c(=O)c1 | HIF ODD | luciferase reporter, activator | SH-SY5Y | 0.05 to 15 µM | relative to: background | maximum activation | 8.5 ± 0.5 fold
